Assay results pooled from the literature.
Numbered parts are unrelated; each lists some results of a single study.
UniProt O00444, sequence (whole entry, looked up): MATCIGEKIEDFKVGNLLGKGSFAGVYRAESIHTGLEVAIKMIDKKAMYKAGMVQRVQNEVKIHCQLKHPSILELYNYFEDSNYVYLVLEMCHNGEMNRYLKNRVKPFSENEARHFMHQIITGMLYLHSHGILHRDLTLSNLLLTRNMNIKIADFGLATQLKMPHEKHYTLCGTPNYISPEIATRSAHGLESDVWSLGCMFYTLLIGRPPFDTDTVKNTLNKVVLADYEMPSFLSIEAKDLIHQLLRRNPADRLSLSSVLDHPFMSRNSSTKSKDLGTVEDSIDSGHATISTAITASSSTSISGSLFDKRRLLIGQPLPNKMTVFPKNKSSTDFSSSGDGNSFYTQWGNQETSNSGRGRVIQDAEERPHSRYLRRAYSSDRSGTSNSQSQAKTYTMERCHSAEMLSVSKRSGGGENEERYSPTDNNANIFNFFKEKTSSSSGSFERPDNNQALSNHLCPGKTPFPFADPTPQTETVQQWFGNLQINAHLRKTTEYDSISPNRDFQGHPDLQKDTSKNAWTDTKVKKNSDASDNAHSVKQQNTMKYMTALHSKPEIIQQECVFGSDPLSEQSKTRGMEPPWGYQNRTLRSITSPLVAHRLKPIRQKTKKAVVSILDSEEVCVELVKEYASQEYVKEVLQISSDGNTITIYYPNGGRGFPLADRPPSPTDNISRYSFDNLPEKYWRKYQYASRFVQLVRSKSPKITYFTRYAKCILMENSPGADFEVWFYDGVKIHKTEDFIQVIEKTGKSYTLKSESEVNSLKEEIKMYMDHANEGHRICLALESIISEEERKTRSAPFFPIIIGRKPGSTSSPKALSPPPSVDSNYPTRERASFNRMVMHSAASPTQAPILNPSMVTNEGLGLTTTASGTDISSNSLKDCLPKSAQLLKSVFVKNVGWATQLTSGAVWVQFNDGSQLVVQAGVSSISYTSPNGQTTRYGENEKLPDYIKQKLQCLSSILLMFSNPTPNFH
UniProt P27448, sequence (whole entry, looked up): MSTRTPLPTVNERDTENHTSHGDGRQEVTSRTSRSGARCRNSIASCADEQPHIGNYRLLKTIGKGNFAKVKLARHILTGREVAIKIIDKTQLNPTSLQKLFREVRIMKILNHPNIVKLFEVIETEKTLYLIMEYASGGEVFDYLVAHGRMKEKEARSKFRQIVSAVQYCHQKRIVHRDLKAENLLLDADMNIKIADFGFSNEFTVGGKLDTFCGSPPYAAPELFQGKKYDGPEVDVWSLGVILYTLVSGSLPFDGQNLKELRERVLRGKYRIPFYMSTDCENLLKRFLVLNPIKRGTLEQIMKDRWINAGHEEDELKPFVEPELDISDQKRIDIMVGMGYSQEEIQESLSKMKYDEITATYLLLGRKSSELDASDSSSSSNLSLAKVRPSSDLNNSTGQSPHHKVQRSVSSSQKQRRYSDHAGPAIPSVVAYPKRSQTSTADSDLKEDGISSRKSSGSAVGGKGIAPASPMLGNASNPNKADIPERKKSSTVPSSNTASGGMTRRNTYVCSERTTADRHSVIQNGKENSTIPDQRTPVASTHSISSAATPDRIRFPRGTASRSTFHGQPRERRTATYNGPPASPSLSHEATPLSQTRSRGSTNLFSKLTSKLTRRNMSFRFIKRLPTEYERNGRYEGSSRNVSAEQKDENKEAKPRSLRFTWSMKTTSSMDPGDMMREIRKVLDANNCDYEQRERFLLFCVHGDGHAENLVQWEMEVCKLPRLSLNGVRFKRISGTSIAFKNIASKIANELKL
UniProt Q00526, sequence (whole entry, looked up): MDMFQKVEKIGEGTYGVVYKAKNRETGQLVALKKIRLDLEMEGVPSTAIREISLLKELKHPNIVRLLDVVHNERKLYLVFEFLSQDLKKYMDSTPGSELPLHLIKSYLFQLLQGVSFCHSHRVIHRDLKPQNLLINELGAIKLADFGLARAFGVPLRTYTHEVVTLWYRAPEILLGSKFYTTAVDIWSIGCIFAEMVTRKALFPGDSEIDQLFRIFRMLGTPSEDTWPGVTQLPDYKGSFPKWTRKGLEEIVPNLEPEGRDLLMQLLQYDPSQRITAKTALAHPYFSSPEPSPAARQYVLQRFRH

Series 1
Structure (SMILES): Cc1sc(C(=O)NC2COC2)cc1-n1cc(NC(=O)Nc2c(F)cccc2Cl)cn1
Observed: enzyme activity
Concentration: 10 µM
Measurement: remaining activity
target = Tyrosine-protein kinase SYK (SYK, Homo sapiens, UniProt P43405); relative to = untreated control; value = 85.5%
target = Protein kinase C alpha type (PRKCA, Homo sapiens, UniProt P17252); relative to = untreated control; value = 92.5%
target = Serine/threonine-protein kinase ICK (CILK1, Homo sapiens, UniProt Q9UPZ9); relative to = untreated control; value = 100%
target = Serine/threonine-protein kinase/endoribonuclease IRE2 (ERN2, Homo sapiens, UniProt Q76MJ5); mode = inhibitor; value = 80.7%
target = Serine/threonine-protein kinase PLK4 (PLK4, Homo sapiens, UniProt O00444); relative to = untreated control; value = 99.4%
target = Cyclin-dependent kinase 3, with cyclin E2 (CDK3, Homo sapiens, UniProt Q00526); relative to = untreated control; value = 99.4%
target = Testis-specific serine/threonine-protein kinase 1 (TSSK1B, Homo sapiens, UniProt Q9BXA7); relative to = untreated control; value = 102%
target = Aurora kinase C (AURKC, Homo sapiens, UniProt Q9UQB9); relative to = untreated control; value = 101%
target = MAP/microtubule affinity-regulating kinase 3 (MARK3, Homo sapiens, UniProt P27448); relative to = untreated control; value = 100%
target = Serine/threonine-protein kinase 24 (STK24, Homo sapiens, UniProt Q9Y6E0); relative to = untreated control; value = 63.2%
target = Receptor-type tyrosine-protein kinase FLT3 (FLT3, Homo sapiens, UniProt P36888); relative to = untreated control; value = 68.4%

Series 2
Target: Calcium/calmodulin-dependent protein kinase type II subunit alpha (CAMK2A, Homo sapiens, UniProt Q9UQM7)
UniProt Q9UQM7, sequence (whole entry, looked up): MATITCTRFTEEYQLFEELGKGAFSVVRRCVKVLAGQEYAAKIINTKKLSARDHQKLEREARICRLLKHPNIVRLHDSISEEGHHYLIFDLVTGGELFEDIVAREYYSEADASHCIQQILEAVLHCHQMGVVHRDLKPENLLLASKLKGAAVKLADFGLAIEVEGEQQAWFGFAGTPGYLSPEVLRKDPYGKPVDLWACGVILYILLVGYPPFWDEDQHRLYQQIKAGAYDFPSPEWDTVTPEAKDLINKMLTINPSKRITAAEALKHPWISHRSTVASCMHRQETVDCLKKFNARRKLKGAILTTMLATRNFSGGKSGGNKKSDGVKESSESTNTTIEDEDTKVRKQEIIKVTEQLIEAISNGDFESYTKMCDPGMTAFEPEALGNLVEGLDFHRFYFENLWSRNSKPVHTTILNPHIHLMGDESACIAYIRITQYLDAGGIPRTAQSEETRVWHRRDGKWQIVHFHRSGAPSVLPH
Observed: enzyme activity
Mode: inhibitor
Concentration: 10 µM
Measurement: inhibition
SMILES = C[C@@H]1O[C@@H](Oc2c(-c3ccc(O)c(O)c3)oc3cc(O)cc(O)c3c2=O)[C@H](O)[C@H](O)[C@H]1O; value = -1%
SMILES = COc1cc([C@@H]2c3cc4c(cc3[C@@H]3OC[C@H]2[C@@H]3CO)OCO4)cc(OC)c1OC; value = 4%
SMILES = CC(C)=CCC/C(C)=C/CC/C(C)=C/CC/C=C(\C)CC/C=C(\C)CCC=C(C)C; value = -9%
SMILES = CCC(CC)COC(=O)[C@H](C)N[P@](=O)(OC[C@H]1O[C@@](C#N)(c2ccc3c(N)ncnn23)[C@H](O)[C@@H]1O)Oc1ccccc1; value = -2%
SMILES = CCCOc1ccc(S(=O)(=O)NCCC2CCCN2C)cc1-c1nc2c(CCC)nn(C)c2c(=O)[nH]1 (stereo not drawn); value = -10%
SMILES = COc1cc(O)c2c(=O)c(O[C@@H]3O[C@H](CO)[C@@H](O)[C@H](O)[C@H]3O)c(-c3ccc(O[C@@H]4O[C@H](CO)[C@@H](O)[C@H](O)[C@H]4O)cc3)oc2c1; value = -44%
SMILES = COC(=O)c1ccc(OC)c(O)c1; value = 27%
SMILES = CCC(=O)OCC(=O)[C@@]1(OC(=O)CC)[C@@H](C)C[C@H]2[C@@H]3CCC4=CC(=O)C=C[C@]4(C)[C@@]3(Cl)[C@@H](O)C[C@@]21C; value = 3%
SMILES = NC(=O)c1ccc[n+]([C@@H]2O[C@H](CO)[C@@H](O)[C@H]2O)c1; value = -17%

Series 3
Target: 5-hydroxytryptamine receptor 1E (HTR1E, Homo sapiens, UniProt P28566)
UniProt P28566, sequence (whole entry, looked up): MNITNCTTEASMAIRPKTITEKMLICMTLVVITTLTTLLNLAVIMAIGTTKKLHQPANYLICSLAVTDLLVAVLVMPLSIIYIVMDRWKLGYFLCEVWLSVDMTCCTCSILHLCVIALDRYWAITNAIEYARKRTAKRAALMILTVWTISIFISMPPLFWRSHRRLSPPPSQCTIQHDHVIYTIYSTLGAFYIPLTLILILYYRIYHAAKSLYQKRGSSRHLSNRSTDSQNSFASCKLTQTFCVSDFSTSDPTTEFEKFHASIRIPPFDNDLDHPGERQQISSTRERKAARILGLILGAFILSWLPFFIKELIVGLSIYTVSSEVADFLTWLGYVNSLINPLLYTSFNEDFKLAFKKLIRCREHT
Observed: ligand displacement
Method: radioligand
Concentration: 10 µM
Measurement: inhibition
SMILES = C[C@@H](NC(=O)Nc1cc2[nH]ncc2c(CO)n1)c1ccccc1; value = -10.7%
SMILES = CCC(=O)N[C@H]1CC[C@@H](C(=O)N(C)c2ccc(-c3nc4ccccc4o3)cc2)C1; value = -3.14%
SMILES = Cc1nc(C2CCN(C(=O)c3ccc(OC(F)(F)F)cc3N)CC2)c2ncc(N3CCN(C)CC3)cc2n1; value = -9.94%
SMILES = Cc1cc(-n2nc(Cc3cc(F)cc(C(F)(F)F)c3)nc2C)ccc1C(N)=O; value = 10.5%
SMILES = Cn1cncc1[C@](O)(COc1ccc(C#N)cc1-c1ccc(OC(F)(F)F)cc1)c1ccc(C#N)cc1; value = 1.11%
SMILES = CCOc1cc(N2C3COCC2CN(C(=O)[C@H]2C[C@H](O)CN2c2ccc(Cl)cc2)C3)ccc1Cl; value = -16%
SMILES = CC(=O)N1CCC(c2ccc(C(=O)NC3=NCCN3)cc2C(F)(F)F)CC1; value = -19%
SMILES = COCCOc1nc(-c2ccc(Cl)nc2)nc2c1CN(C(=O)c1ncn3ccccc13)CC2; value = 6.95%
SMILES = CN(c1ccnc(CNc2nc(Nc3ccc4c(c3)CC(=O)N4)ncc2C(F)(F)F)n1)S(C)(=O)=O; value = -26.4%
SMILES = Cc1c(NC(=O)c2cc(C(N)=O)nc3cc(F)ccc23)c(C(F)(F)F)nn1Cc1ccc(C#N)cc1; value = 4%
SMILES = CC1=C(C#N)C(c2ccc3c(c2)c(NC(=O)c2ccccc2C)nn3C)C(C#N)=C(C)N1; value = 11.4%
SMILES = COc1ccc2c(O[C@@H]3C[C@H]4C(=O)N[C@]5(C(=O)O)CC5/C=C\CCCCC[C@H](NC(=O)OC5CCCC5)C(=O)N4C3)cc(-c3csc(NC(=O)C(C)C)n3)nc2c1C (stereo partly drawn); value = 14.9%
SMILES = CNC(=O)Nc1ccc2c(c1)CC[C@]21OC(=O)N(CC(=O)N(Cc2ccc(F)cc2)[C@@H](C)C(F)(F)F)C1=O; value = 4.23%
SMILES = CSc1cccnc1N1CCN(Cc2nc3ccccc3[nH]2)CC1; value = 20.9%
SMILES = CCC(=NO)C(C)=Cc1ccc(F)c(C)c1; value = 4.47%
SMILES = Cc1cc(Nc2nccc(C)n2)cc(-c2cnc([C@@]3(O)CC[C@H](C(=O)O)C(C)(C)C3)s2)c1; value = 11.4%
SMILES = C[C@@H](c1cccc(C#N)c1)n1cc(Cl)cc(C(N)=O)c1=N; value = -1.72%
SMILES = C[C@H](c1ccc(F)cc1)N(Cc1cccc(C(=O)O)c1)C(=O)c1cnc2ccccc2c1; value = -18.9%

Series 4
Target: MAP kinase-activated protein kinase 5 (MAPKAPK5, Homo sapiens, UniProt Q8IW41)
UniProt Q8IW41, sequence (whole entry, looked up): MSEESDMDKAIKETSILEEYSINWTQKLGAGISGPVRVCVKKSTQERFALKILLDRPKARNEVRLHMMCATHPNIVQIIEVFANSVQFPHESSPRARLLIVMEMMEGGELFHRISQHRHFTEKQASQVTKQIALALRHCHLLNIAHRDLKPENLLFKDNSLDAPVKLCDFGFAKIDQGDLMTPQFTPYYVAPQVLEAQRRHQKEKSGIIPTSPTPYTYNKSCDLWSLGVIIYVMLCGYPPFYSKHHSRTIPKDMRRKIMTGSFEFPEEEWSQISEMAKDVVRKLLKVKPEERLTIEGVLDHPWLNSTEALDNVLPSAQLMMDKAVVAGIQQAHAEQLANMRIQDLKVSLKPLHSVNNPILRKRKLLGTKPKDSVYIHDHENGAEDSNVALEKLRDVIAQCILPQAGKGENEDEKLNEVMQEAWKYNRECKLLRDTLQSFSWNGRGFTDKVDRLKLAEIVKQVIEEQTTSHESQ
Observed: enzyme activity
Mode: inhibitor
Concentration: 0.5 µM
Relative to: control
Measurement: remaining activity
Structure (SMILES) = O=C1Cc2c([nH]c3ccc(Br)cc23)-c2ccccc2N1; value = 94.6%
Structure (SMILES) = O=C1Nc2ccccc2/C1=C\c1c(Cl)[nH]c2ccccc12; value = 121%
Structure (SMILES) = O=C1NC(=O)c2c1c1c3ccccc3[nH]c1n1cncc21; value = 123%
Structure (SMILES) = CCCNC(=O)Nc1ccc(Oc2ncnc3cc(OC)c(OC)cc23)cc1Cl; value = 92.2%
Structure (SMILES) = COc1cccc(-c2cc(=O)c3ccccc3o2)c1N; value = 122%
Structure (SMILES) = O=c1cc(N2CCOCC2)oc2c(-c3ccccc3)cccc12; value = 94.1%
Structure (SMILES) = Cc1ccc(S(=O)(=O)/C=C/C#N)cc1; value = 88.9%
Structure (SMILES) = Oc1cccc(-c2nc(N3CCOCC3)c3oc4ncccc4c3n2)c1; value = 85.7%
Structure (SMILES) = CN1CCN(c2ccc3nc(-c4c(N)c5c(F)cccc5[nH]c4=O)[nH]c3c2)CC1; value = 93.9%
Structure (SMILES) = O=C1NC(=O)c2c1c1c3ccccc3[nH]c1c1[nH]c3cc(Br)ccc3c21; value = 86.2%

Repeated from above (series 2):
SMILES = COc1cc([C@@H]2c3cc4c(cc3[C@@H]3OC[C@H]2[C@@H]3CO)OCO4)cc(OC)c1OC; value = 4%
SMILES = C[C@@H]1O[C@@H](Oc2c(-c3ccc(O)c(O)c3)oc3cc(O)cc(O)c3c2=O)[C@H](O)[C@H](O)[C@H]1O; value = -1%
SMILES = CCC(CC)COC(=O)[C@H](C)N[P@](=O)(OC[C@H]1O[C@@](C#N)(c2ccc3c(N)ncnn23)[C@H](O)[C@@H]1O)Oc1ccccc1; value = -2%
SMILES = CCCOc1ccc(S(=O)(=O)NCCC2CCCN2C)cc1-c1nc2c(CCC)nn(C)c2c(=O)[nH]1 (stereo not drawn); value = -10%
SMILES = CC(C)=CCC/C(C)=C/CC/C(C)=C/CC/C=C(\C)CC/C=C(\C)CCC=C(C)C; value = -9%
